Assay results of several laboratories.
± gives the spread as reported. Values after ≈ are worked out from the molar mass of the structure shown.
Chain of UniProt Q9P1W9 (whole entry, looked up): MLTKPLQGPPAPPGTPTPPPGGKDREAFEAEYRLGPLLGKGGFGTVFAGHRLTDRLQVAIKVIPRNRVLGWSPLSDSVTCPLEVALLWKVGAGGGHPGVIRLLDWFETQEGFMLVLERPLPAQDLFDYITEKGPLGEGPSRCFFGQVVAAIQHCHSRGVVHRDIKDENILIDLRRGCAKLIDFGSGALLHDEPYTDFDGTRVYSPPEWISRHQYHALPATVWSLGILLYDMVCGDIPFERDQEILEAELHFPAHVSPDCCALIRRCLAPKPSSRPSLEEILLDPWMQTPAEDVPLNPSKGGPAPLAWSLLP

Compound = O=C(Nc1cc(-c2ccc(Cl)cc2)[nH]n1)C1CCCCC1; target or system = PIM2 (Homo sapiens, UniProt Q9P1W9); assay = enzyme activity, Dundee kinase panel; conditions = 10 µM; endpoint = remaining activity; value = 81%
Compound = COc1ccc(NC(=O)Cn2cc(COc3ccc(-c4nc5ccccc5c(=O)n4Nc4ccc([N+](=O)[O-])cc4[N+](=O)[O-])cc3OC)nn2)c(OC)c1; target or system = mushroom tyrosinase; assay = inhibitor, colorimetric; conditions = added: L-DOPA substrate; endpoint = IC50; value = 17 ± 1.66 µM
Compound = O=C(NCc1ccccc1)c1cn(Cc2ccc(C(F)(F)F)cc2)c2ccc(Oc3ccccc3)cc2c1=O; target or system = MCF10; conditions = 72 h; endpoint = CC50; value = 18.64 ± 0.09 µM
Compound = COc1cc(/C=N/NC(=S)N/N=C/c2ccc(C=O)cc2)ccc1Oc1ccnc2cc(Cl)ccc12; target or system = human lysosomal acid alpha-glucosidase; assay = inhibitor; conditions = added: pNPG substrate; endpoint = IC50; value = 10.6 ± 0.4 µg/mL
Compound = CCOc1c([C@H](C)n2nc(C)c3c(N)ncnc32)cc(Cl)c(F)c1[C@@H]1CNC(=O)C1; system = human patients, Hodgkin lymphoma, plasma; conditions = oral, 30 mg, day 15, monotherapy; endpoint = half-life; value = 10.4 ± 3 h
Compound = Cc1ccc(N=Nc2c(N)nn3c(-c4ccc(Cl)cc4Cl)cc(-c4ccc(OCc5ccccc5)cc4)nc23)cc1; target or system = Escherichia coli; system = ATCC 25955; endpoint = MIC; value = 15.6 µg/mL (≈ 26.9 µM)
Compound = COc1cc(/C=N/NC(=S)NN=Cc2ccc(CO)o2)ccc1Oc1ccnc2cc(Cl)ccc12; target or system = human lysosomal acid alpha-glucosidase; assay = inhibitor; conditions = added: pNPG substrate; endpoint = IC50; value = 13.7 ± 0.17 µg/mL
Compound = COc1cc(-c2nc3ccccc3c(=O)n2Nc2ccc([N+](=O)[O-])cc2[N+](=O)[O-])ccc1OCc1cn(CC(=O)Nc2cccc(Cl)c2)nn1; target or system = mushroom tyrosinase; assay = enzyme activity; conditions = 40 µM, added: L-DOPA; endpoint = inhibition; value = 57.9 ± 3.6%
Compound = Nc1nn2c(-c3ccc(Cl)cc3Cl)cc(-c3ccc(OCc4ccccc4)cc3)nc2c1N=Nc1ccc(F)cc1; target or system = Enterococcus faecalis; assay = broth microdilution; system = MTCC 0459; endpoint = MBC; value = 125 µg/mL (≈ 214 µM)

Excerpt of the above:
Compound = Nc1nn2c(-c3ccc(Cl)cc3Cl)cc(-c3ccc(OCc4ccccc4)cc3)nc2c1N=Nc1ccc(F)cc1; target or system = Enterococcus faecalis; assay = broth microdilution; system = MTCC 0459; endpoint = MBC; value = 125 µg/mL (≈ 214 µM)
